Measured values pooled from the literature.
Every numbered part comes from another study and shows a few of its results, in no order.
UniProt P42685, sequence (whole entry, looked up): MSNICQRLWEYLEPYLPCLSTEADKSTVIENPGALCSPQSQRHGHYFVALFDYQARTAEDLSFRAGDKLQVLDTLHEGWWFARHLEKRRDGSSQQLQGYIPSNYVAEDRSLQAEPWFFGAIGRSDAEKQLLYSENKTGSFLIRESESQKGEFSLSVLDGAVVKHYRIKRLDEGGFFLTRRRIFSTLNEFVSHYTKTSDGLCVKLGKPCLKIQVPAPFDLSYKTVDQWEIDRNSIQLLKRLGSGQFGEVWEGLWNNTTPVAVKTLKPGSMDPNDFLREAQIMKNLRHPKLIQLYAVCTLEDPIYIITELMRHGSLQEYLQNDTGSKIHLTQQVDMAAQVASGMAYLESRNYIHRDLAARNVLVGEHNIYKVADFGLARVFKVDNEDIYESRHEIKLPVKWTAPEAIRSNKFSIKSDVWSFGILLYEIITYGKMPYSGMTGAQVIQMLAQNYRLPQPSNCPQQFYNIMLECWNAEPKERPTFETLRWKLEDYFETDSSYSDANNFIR
UniProt P45983, sequence (whole entry, looked up): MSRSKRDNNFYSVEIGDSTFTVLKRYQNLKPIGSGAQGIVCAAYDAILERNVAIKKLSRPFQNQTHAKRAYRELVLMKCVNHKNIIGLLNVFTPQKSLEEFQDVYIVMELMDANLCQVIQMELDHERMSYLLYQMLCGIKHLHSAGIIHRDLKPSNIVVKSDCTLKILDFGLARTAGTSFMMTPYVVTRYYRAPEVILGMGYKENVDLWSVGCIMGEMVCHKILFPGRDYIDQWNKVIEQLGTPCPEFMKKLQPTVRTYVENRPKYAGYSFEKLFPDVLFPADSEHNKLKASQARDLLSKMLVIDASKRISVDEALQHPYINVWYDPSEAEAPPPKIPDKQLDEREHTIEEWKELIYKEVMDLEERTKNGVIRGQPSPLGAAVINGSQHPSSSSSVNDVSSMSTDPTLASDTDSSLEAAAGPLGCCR
UniProt P06239, sequence (whole entry, looked up): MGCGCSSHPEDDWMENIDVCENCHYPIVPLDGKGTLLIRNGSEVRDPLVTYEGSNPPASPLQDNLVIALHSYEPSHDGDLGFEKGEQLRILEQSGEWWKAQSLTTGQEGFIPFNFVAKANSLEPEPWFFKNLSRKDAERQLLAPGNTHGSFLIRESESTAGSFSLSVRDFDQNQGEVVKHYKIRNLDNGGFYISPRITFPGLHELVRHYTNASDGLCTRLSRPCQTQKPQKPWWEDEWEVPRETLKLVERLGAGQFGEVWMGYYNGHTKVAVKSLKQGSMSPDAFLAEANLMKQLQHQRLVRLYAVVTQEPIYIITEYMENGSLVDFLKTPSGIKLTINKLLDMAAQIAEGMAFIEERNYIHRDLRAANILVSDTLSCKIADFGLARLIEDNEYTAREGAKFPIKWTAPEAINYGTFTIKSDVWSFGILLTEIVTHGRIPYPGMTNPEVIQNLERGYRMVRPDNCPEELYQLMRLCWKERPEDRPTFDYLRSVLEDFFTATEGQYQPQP
UniProt Q96PY6, sequence (whole entry, looked up): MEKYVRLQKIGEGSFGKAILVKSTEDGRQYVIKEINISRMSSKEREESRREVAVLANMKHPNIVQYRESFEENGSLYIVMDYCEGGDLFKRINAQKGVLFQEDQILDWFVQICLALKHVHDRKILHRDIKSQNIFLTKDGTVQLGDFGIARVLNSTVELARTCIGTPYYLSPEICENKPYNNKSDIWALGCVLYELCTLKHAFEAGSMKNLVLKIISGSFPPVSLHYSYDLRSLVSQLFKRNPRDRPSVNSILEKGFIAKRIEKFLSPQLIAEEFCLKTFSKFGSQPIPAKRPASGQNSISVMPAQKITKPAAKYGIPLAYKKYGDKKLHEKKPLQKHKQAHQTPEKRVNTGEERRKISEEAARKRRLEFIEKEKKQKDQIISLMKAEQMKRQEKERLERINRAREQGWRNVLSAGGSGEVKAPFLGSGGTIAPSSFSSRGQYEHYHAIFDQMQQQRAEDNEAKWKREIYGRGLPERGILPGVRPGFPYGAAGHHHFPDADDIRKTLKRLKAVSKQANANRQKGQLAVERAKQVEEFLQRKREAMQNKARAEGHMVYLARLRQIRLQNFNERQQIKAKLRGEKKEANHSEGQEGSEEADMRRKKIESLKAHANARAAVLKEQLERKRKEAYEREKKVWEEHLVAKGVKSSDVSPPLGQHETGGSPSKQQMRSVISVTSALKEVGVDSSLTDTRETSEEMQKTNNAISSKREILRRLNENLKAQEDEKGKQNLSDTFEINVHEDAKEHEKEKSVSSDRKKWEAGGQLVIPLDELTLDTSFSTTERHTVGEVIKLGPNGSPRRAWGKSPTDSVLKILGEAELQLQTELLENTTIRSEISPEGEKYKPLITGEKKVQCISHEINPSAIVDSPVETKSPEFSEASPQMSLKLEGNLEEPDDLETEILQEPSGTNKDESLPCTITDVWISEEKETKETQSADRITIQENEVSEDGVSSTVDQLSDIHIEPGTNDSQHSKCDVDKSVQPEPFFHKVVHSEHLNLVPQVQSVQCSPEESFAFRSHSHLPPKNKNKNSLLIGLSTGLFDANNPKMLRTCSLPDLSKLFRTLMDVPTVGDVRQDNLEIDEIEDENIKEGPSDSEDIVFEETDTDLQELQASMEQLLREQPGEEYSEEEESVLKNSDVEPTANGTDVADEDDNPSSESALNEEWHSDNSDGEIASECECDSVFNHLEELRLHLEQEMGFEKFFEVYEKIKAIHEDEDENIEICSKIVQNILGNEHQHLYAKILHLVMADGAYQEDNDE
UniProt P52333, sequence (whole entry, looked up): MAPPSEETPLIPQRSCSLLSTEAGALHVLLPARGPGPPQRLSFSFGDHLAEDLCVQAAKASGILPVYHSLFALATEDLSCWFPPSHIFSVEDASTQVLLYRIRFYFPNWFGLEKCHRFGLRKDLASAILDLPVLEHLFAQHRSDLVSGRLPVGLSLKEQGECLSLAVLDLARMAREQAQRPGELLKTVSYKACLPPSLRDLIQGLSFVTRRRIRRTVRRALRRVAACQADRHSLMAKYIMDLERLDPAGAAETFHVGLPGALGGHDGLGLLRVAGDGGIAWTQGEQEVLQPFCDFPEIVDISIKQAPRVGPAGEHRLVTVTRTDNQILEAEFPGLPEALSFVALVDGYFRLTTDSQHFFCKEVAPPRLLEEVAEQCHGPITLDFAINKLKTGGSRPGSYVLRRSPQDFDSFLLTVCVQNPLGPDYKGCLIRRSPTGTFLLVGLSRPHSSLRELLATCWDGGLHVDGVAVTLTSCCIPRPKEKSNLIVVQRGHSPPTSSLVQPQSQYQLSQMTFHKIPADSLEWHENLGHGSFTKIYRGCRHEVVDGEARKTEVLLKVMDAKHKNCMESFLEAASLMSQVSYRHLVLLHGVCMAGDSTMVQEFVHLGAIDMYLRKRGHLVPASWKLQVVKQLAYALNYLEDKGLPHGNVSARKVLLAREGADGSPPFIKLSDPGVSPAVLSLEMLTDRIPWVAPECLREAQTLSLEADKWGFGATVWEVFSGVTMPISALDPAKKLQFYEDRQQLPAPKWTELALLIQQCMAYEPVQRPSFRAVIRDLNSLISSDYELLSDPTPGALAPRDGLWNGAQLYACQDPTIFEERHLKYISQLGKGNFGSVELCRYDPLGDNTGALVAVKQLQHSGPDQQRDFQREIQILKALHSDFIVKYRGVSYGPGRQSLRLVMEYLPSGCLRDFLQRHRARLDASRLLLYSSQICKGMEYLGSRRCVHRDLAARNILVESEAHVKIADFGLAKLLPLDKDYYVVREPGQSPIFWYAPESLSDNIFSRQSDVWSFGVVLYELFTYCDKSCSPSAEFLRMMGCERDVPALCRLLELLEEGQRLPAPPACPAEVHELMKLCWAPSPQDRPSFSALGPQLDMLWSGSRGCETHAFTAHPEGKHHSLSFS
UniProt P50613, sequence (whole entry, looked up): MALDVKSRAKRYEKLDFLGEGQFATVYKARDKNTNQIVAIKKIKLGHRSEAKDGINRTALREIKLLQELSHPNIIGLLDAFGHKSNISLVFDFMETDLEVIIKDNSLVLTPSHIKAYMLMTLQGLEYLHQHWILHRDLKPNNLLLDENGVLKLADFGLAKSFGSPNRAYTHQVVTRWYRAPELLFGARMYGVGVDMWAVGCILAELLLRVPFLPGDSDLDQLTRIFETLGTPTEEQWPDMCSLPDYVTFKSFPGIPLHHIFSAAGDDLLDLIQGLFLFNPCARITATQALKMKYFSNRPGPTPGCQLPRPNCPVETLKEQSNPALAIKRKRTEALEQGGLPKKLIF

Series 1
Target: Calcium/calmodulin-dependent protein kinase type II subunit alpha (CAMK2A, Homo sapiens, UniProt Q9UQM7)
UniProt Q9UQM7, sequence (whole entry, looked up): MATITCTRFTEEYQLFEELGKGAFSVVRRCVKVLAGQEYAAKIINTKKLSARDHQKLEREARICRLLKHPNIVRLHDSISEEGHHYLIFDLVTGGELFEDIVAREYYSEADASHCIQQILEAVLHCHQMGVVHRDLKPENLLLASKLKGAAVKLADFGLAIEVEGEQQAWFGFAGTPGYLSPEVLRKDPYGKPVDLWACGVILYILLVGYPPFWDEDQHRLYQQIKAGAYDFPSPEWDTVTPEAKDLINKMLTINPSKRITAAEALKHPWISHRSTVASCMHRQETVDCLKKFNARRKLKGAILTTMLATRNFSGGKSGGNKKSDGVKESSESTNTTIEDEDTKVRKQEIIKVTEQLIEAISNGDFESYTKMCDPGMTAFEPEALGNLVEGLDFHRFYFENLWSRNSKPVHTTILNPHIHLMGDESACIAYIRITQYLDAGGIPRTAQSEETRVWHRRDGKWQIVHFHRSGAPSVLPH
Observed: enzyme activity
Mode: inhibitor
Concentration: 10 µM
Quantity: inhibition
C[C@@H]1O[C@@H](O[C@H]2[C@H](O)[C@@H](O)[C@H](O[C@H]3CC[C@]4(C)[C@H]5CC=C6[C@@H]7CC(C)(C)CC[C@]7(CO)[C@@H](O)C[C@@]6(C)[C@]5(C)CC[C@H]4C3(C)C)O[C@@H]2CO[C@@H]2O[C@H](CO)[C@@H](O)[C@H](O)[C@H]2O)[C@H](O)[C@H](O)[C@H]1O: -16%
OC[C@@H](O)[C@@H](O)[C@@H](O)[C@@H](O)CO: -23%
CCOCCn1c(N2CCCN(C)CC2)nc2ccccc21: -2%
Cc1cc(=O)c2c(O)c3c(cc2o1)OC(C)(C)[C@@H](O[C@@H]1O[C@H](CO)[C@@H](O)[C@H](O)[C@H]1O)C3: 8%
COC(=O)CCC(=O)CN: 8%
C[C@]12CCC(=O)C=C1CC[C@@H]1[C@@H]2CC[C@@]2(C)[C@H]1CC[C@]2(O)C(=O)CO: 11%
CN(C)CCC=C1c2ccccc2CCc2ccccc21: 13%

Series 2
SMILES: O=C(N1CCS(=O)(=O)CC1)N1C[C@H](c2ccc(OC(F)(F)F)cc2)C[C@H](c2nc(C3CC3)no2)C1
Observed: cell-free assay
Method: competition with immobilised ligand
Concentration: 1 µM
Quantity: remaining binding
Mitogen-activated protein kinase kinase kinase 4 (MAP3K4, Homo sapiens, UniProt Q9Y6R4): 83%
Serine/threonine-protein kinase 10 (STK10, Homo sapiens, UniProt O94804): 100%
1-phosphatidylinositol 3-phosphate 5-kinase (PIKFYVE, Homo sapiens, UniProt Q9Y2I7): 100%
Cyclin-dependent kinase 7 (CDK7, Homo sapiens, UniProt P50613): 100%
Mitogen-activated protein kinase 8 (MAPK8, Homo sapiens, UniProt P45983): 82%
Tyrosine-protein kinase FRK (FRK, Homo sapiens, UniProt P42685): 100%
Tyrosine-protein kinase ITK/TSK (ITK, Homo sapiens, UniProt Q08881): 100%

Series 3
SMILES: NCCNc1ncc(C(N)=O)c(Nc2cccc(C(F)(F)F)c2)n1
Observed: enzyme activity
Mode: inhibitor
Concentration: 0.5 µM
Reference: control
Quantity: remaining activity
Mitogen-activated protein kinase kinase kinase 14 (MAP3K14, Homo sapiens, UniProt Q99558): 110%
Serine/threonine-protein kinase A-Raf (ARAF, Homo sapiens, UniProt P10398): 98.5%
Activin receptor type-1B (ACVR1B, Homo sapiens, UniProt P36896): 98.2%
Tyrosine-protein kinase Mer (MERTK, Homo sapiens, UniProt Q12866): 88.4%
Casein kinase I isoform gamma-2 (CSNK1G2, Homo sapiens, UniProt P78368): 76.6%
Serine/threonine-protein kinase Nek1 (NEK1, Homo sapiens, UniProt Q96PY6): 94.5%
Tyrosine-protein kinase Lck (LCK, Homo sapiens, UniProt P06239): 87.6%
Serine/threonine-protein kinase TBK1 (TBK1, Homo sapiens, UniProt Q9UHD2): 86%
Tyrosine-protein kinase JAK3 (JAK3, Homo sapiens, UniProt P52333): 93.4%
Ephrin type-A receptor 3 (EPHA3, Homo sapiens, UniProt P29320): 92.9%
Fibroblast growth factor receptor 3 (FGFR3, Homo sapiens, UniProt P22607): 97.5%
Macrophage-stimulating protein receptor (MST1R, Homo sapiens, UniProt Q04912): 91%
Tyrosine-protein kinase FRK (FRK, Homo sapiens, UniProt P42685): 89.4%
Serine/threonine-protein kinase TAO2 (TAOK2, Homo sapiens, UniProt Q9UL54): 85.9%

Series 4
Cell line: A-375
Concentration: 100 µM
Time: 18 h
Quantity: viability
CN1C(C)(C)CCCC1(C)C: 84.6%
CCCc1cc(=O)[nH]c(=S)[nH]1: 97.2%
CCCCc1oc2ccc(NS(C)(=O)=O)cc2c1C(=O)c1ccc(OCCCN(CCCC)CCCC)cc1: 9.83%
O=C1[C@@H]2[C@H]3CC[C@H](C3)[C@@H]2C(=O)N1C[C@@H]1CCCC[C@H]1CN1CCN(c2nsc3ccccc23)CC1: 96.7%
Cc1cn([C@H]2O[C@@H](CO)[C@H](O)[C@H]2F)c(=O)[nH]c1=O: 100%
COC(=O)C1=C(C)NC(C)=C(C(=O)OC(C)C)C1c1cccc2nonc12 (stereo not shown): 42.2%

Some of these lines once more (series 3):
Mitogen-activated protein kinase kinase kinase 14 (MAP3K14, Homo sapiens, UniProt Q99558): 110%
Serine/threonine-protein kinase A-Raf (ARAF, Homo sapiens, UniProt P10398): 98.5%
Activin receptor type-1B (ACVR1B, Homo sapiens, UniProt P36896): 98.2%
